Measured values collected from several papers.
A part holds a random share of what one study measured. “And” joins repeats or separate records; there may be more than shown.
Sequence of UniProt O60285 (whole entry, looked up): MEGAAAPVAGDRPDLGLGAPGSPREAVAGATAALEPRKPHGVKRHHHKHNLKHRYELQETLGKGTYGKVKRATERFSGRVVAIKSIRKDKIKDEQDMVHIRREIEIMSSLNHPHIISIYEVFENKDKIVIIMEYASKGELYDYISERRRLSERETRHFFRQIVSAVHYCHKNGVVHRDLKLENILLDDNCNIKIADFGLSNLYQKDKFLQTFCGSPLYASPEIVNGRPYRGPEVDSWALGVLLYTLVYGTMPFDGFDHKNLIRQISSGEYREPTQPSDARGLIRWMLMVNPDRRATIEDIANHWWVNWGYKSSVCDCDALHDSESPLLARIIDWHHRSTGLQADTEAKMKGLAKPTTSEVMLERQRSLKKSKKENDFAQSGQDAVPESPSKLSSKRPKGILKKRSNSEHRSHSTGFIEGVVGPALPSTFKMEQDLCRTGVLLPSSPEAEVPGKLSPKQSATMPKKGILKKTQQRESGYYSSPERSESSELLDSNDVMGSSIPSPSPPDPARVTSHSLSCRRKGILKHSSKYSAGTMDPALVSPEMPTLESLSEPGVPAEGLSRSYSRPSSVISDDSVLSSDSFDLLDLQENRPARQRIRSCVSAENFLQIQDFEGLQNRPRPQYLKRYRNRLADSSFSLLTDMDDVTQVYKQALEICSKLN
Sequence of UniProt P41145 (whole entry, looked up): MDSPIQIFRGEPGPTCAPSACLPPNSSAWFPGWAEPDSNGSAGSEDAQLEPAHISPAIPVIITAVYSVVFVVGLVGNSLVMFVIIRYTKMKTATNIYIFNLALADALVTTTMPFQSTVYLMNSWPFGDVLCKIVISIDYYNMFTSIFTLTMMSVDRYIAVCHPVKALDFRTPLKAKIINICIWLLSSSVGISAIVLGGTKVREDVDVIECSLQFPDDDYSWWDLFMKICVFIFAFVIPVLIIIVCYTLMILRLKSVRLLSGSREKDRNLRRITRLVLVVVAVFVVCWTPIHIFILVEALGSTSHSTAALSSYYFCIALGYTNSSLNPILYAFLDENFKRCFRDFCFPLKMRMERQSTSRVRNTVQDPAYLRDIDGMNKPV
Sequence of UniProt P13945 (whole entry, looked up): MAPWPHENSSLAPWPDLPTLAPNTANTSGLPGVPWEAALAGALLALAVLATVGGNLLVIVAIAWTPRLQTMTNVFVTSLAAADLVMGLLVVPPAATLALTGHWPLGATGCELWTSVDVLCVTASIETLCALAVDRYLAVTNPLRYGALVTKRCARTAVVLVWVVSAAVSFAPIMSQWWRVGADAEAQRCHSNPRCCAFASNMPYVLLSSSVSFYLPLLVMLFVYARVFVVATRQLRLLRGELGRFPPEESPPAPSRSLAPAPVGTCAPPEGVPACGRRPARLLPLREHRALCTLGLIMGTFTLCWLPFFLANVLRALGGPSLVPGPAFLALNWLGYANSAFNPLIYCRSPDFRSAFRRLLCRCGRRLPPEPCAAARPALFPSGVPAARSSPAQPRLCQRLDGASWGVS
Sequence of UniProt P29323 (whole entry, looked up): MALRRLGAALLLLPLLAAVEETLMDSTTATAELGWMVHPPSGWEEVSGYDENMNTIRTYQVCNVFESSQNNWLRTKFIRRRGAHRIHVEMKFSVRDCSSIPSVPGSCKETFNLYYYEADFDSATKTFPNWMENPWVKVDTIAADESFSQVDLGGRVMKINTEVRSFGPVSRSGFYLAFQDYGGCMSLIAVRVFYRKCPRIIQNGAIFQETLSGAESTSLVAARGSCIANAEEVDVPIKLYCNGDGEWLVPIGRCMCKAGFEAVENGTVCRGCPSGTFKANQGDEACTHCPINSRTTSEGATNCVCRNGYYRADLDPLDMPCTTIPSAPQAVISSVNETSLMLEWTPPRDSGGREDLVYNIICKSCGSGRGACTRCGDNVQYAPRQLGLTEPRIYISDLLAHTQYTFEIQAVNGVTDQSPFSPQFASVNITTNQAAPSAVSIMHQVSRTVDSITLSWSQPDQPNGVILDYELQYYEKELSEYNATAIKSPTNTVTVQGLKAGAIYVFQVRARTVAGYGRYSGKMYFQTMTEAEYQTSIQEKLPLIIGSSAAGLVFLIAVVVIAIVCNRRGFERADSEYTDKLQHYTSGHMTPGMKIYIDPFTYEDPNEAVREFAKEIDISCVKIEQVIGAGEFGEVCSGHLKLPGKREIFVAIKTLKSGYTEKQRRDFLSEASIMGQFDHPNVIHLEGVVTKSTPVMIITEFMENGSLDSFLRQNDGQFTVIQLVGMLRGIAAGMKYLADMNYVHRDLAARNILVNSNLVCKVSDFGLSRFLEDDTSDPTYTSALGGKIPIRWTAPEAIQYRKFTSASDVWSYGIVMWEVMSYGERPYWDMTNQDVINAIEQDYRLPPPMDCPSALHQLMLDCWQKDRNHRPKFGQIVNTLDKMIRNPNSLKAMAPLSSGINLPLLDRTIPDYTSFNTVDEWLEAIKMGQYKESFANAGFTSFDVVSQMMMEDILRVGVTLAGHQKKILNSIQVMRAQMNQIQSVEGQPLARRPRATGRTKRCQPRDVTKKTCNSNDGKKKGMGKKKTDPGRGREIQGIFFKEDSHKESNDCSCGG
Sequence of UniProt P20309 (whole entry, looked up): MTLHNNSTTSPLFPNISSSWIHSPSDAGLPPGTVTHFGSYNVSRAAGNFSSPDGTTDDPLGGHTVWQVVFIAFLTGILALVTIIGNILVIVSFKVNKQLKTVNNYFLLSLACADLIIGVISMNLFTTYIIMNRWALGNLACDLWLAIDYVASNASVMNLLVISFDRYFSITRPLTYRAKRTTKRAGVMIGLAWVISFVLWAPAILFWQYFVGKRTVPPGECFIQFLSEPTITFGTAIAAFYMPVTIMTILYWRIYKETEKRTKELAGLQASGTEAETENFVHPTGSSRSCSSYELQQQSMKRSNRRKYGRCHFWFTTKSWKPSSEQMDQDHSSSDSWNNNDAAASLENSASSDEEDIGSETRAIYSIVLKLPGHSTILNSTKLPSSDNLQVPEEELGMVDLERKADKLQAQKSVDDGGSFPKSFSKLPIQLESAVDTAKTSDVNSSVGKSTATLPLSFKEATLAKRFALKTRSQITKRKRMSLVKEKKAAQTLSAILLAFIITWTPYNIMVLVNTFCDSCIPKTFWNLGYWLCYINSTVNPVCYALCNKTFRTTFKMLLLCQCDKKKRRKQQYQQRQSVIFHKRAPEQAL
Sequence of UniProt P11229 (whole entry, looked up): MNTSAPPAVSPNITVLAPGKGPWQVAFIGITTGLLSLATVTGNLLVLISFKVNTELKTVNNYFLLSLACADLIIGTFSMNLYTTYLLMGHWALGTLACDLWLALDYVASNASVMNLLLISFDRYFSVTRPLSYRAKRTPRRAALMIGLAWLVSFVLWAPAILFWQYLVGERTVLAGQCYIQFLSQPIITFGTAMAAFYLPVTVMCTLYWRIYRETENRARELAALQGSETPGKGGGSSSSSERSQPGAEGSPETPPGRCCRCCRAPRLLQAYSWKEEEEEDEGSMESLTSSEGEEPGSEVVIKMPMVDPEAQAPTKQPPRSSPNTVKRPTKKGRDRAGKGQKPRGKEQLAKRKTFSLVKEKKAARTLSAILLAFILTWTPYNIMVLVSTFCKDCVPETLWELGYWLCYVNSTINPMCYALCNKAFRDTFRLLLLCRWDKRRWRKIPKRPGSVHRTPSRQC
Sequence of UniProt P47898 (whole entry, looked up): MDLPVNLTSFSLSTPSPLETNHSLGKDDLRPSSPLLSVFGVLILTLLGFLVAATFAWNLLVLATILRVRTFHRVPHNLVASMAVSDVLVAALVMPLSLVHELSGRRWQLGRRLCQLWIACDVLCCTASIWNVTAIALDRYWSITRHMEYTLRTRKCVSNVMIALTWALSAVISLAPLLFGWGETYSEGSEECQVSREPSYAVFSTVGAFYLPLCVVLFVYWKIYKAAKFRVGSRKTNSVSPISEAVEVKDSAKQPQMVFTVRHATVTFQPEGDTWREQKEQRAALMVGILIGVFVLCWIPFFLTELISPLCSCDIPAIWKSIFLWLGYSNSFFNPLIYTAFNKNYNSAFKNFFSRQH
Sequence of UniProt Q01959 (whole entry, looked up): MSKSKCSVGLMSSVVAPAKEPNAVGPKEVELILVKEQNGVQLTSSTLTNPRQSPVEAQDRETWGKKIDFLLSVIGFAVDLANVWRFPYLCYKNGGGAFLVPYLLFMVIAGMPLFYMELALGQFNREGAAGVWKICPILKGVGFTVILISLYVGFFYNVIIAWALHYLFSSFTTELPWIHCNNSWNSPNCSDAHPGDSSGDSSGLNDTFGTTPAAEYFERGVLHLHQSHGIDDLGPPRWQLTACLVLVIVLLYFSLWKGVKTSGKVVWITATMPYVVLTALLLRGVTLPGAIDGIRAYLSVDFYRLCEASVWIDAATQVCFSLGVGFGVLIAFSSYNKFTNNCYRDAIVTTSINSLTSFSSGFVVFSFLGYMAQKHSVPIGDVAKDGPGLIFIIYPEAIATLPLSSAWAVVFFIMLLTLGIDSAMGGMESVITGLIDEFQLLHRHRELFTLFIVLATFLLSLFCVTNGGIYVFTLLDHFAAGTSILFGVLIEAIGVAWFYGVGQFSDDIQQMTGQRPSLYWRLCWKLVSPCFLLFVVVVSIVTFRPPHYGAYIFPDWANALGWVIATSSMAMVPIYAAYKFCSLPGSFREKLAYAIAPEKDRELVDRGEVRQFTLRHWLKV
Sequence of UniProt P35462 (whole entry, looked up): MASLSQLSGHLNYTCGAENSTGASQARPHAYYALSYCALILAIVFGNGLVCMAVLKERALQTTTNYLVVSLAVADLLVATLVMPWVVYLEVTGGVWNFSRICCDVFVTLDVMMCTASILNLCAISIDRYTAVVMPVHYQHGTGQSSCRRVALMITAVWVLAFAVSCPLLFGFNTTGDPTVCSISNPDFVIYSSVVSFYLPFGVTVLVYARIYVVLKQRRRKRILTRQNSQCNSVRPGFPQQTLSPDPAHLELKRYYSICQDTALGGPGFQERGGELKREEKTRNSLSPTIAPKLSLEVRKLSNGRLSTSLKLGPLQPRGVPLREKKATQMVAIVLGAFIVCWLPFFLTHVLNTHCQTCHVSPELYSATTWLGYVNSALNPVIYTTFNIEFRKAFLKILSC

Series 1
SMILES: Cn1cncc1[C@@](O)(COc1ccc(C#N)cc1-c1ccc(OC(F)(F)F)cc1)c1ccc(C#N)cc1
Effect on: ligand displacement
Tested at: 10 µM
HTR5A (Homo sapiens, UniProt P47898) — inhibition: 0.81%.
The inhibition was 25.8% (CHRM1 (Homo sapiens, UniProt P11229)).
It gave 2.79% for inhibition (CHRM3 (Homo sapiens, UniProt P20309)).
DRD3 (Homo sapiens, UniProt P35462) — inhibition: 18.1%.
DRD2 (Homo sapiens, UniProt P14416) — inhibition: 7.47%.
The inhibition was 4.51% (ADRA1A (Homo sapiens, UniProt P35348)).
HRH3 (Homo sapiens, UniProt Q9Y5N1) — inhibition: 17.8%.
For ADRA2B (Homo sapiens, UniProt P18089): inhibition read 20%.
For SLC6A3 (Homo sapiens, UniProt Q01959): inhibition read 6.63%.
OPRK1 (Homo sapiens, UniProt P41145) — inhibition: 1.27%.
ADRB3 (Homo sapiens, UniProt P13945) — inhibition: -5.85%.

Series 2
Cell line: HEK-293T/ACE2
Tested at: concentration not given
Time: 16 (unit not given)
Reference: vehicle
With `CCOc1nc2cccc(C(=O)OC(C)OC(=O)OC3CCCCC3)c2n1Cc1ccc(-c2ccccc2-c2nnn[nH]2)cc1` (stereo not drawn) the viability was 68%.
The viability of `Cc1onc(-c2ccccc2)c1-c1ccc(S(N)(=O)=O)cc1` is reported as 101%.
`CCCSc1nc(N[C@@H]2C[C@H]2c2ccc(F)c(F)c2)c2nnn([C@@H]3C[C@H](OCCO)[C@@H](O)[C@H]3O)c2n1` has a viability of 105%.
`CC(C)(C)NCC(O)c1cc(O)cc(O)c1` (stereo not drawn) has a viability of 103%.
`Cn1c(=O)cc(N2CCC[C@@H](N)C2)n(Cc2ccccc2C#N)c1=O` gave a viability of 100%.
The viability of `CC(C)/N=c1\cc2n(-c3ccc(Cl)cc3)c3ccccc3nc-2cc1Nc1ccc(Cl)cc1` is reported as 103%.
`CC1=C(/C=C/C(C)=C/C=C/C(C)=C\C(=O)O)C(C)(C)CCC1` has a viability of 99.8%.
The viability of `CC(C)CC(N(C)C)C1(c2ccc(Cl)cc2)CCC1` (stereo not drawn) is reported as 97.3%.
With `Nc1nc2c(ncn2CCC(CO)CO)c(=O)[nH]1` the viability was 97.3%.

Series 3
SMILES: CNC(=O)c1ccc(-c2cnn3ccc(C(=O)N(C)c4ccc(Cl)c(C(=O)OC)c4)cc23)cc1
Organism: Cryptosporidium parvum
Host: neonatal calves
The “fecal oocyst count” was 1830 oocysts/g feces and 10200 oocysts/g feces and 61 oocysts/g feces and 97700 oocysts/g feces and 4360 oocysts/g feces and 133000 oocysts/g feces and 573 oocysts/g feces (qPCR; dose not given, day 2 post-treatment).
It gave 4060 oocysts/g feces and 12600 oocysts/g feces and 4860 oocysts/g feces and 74 oocysts/g feces and 4870 oocysts/g feces and 1250 oocysts/g feces for “fecal oocyst count” (qPCR; dose not given, day 3 post-treatment).
It gave 27600 oocysts/g feces and 3520 oocysts/g feces and 89800 oocysts/g feces and 77100 oocysts/g feces and 30700 oocysts/g feces and 10600 oocysts/g feces and 126000 oocysts/g feces for “fecal oocyst count” (10 mg/kg twice daily, day 0 post-treatment).
qPCR; dose not given, day 7 post-treatment — “fecal oocyst count”: 40 oocysts/g feces and 27 oocysts/g feces and 0 oocysts/g feces and 244 oocysts/g feces and 17 oocysts/g feces and 247 oocysts/g feces.
For dose not given, day 6 post-treatment: “fecal oocyst count” read 2120 oocysts/g feces and 0 oocysts/g feces and 82 oocysts/g feces and 36 oocysts/g feces and 473 oocysts/g feces and 354 oocysts/g feces.
The “fecal oocyst count” was 0 oocysts/g feces and 43 oocysts/g feces (qPCR; dose not given, day 14 post-treatment).

Series 4
Compound: COc1ccc2c(c1)/C(=C/c1cnc[nH]1)C(=O)N2
Effect on: enzyme activity
Mode: inhibitor
Tested at: 0.5 µM
Reference: control
The remaining activity was 90.4% (EPHA7 (Homo sapiens, UniProt Q15375)).
It gave 9.29% for remaining activity (FLT3 (Homo sapiens, UniProt P36888)).
It gave 107% for remaining activity (GRK2 (Homo sapiens, UniProt P25098)).
It gave 100% for remaining activity (BMX (Homo sapiens, UniProt P51813)).
NUAK1 (Homo sapiens, UniProt O60285) — remaining activity: 8.87%.
The remaining activity was 69.6% (RPS6KA1 (Homo sapiens, UniProt Q15418)).
It gave 26.2% for remaining activity (GSK3A (Homo sapiens, UniProt P49840)).
It gave 97.7% for remaining activity (PAK2 (Homo sapiens, UniProt Q13177)).
EPHB2 (Homo sapiens, UniProt P29323) — remaining activity: 100%.
The remaining activity was 85.8% (FGFR4 (Homo sapiens, UniProt P22455)).

Excerpt of the above (series 4):
The remaining activity was 90.4% (EPHA7 (Homo sapiens, UniProt Q15375)).
It gave 9.29% for remaining activity (FLT3 (Homo sapiens, UniProt P36888)).
It gave 107% for remaining activity (GRK2 (Homo sapiens, UniProt P25098)).
It gave 100% for remaining activity (BMX (Homo sapiens, UniProt P51813)).
NUAK1 (Homo sapiens, UniProt O60285) — remaining activity: 8.87%.
The remaining activity was 69.6% (RPS6KA1 (Homo sapiens, UniProt Q15418)).
